# Assay results gathered from unrelated publications.
# Protocols differ between the studies behind these lines. ± gives the spread as reported.
# Target: ATP-dependent translocase ABCB1 (ABCB1, Homo sapiens, UniProt P08183)
# Chain of UniProt P08183 (whole entry, looked up): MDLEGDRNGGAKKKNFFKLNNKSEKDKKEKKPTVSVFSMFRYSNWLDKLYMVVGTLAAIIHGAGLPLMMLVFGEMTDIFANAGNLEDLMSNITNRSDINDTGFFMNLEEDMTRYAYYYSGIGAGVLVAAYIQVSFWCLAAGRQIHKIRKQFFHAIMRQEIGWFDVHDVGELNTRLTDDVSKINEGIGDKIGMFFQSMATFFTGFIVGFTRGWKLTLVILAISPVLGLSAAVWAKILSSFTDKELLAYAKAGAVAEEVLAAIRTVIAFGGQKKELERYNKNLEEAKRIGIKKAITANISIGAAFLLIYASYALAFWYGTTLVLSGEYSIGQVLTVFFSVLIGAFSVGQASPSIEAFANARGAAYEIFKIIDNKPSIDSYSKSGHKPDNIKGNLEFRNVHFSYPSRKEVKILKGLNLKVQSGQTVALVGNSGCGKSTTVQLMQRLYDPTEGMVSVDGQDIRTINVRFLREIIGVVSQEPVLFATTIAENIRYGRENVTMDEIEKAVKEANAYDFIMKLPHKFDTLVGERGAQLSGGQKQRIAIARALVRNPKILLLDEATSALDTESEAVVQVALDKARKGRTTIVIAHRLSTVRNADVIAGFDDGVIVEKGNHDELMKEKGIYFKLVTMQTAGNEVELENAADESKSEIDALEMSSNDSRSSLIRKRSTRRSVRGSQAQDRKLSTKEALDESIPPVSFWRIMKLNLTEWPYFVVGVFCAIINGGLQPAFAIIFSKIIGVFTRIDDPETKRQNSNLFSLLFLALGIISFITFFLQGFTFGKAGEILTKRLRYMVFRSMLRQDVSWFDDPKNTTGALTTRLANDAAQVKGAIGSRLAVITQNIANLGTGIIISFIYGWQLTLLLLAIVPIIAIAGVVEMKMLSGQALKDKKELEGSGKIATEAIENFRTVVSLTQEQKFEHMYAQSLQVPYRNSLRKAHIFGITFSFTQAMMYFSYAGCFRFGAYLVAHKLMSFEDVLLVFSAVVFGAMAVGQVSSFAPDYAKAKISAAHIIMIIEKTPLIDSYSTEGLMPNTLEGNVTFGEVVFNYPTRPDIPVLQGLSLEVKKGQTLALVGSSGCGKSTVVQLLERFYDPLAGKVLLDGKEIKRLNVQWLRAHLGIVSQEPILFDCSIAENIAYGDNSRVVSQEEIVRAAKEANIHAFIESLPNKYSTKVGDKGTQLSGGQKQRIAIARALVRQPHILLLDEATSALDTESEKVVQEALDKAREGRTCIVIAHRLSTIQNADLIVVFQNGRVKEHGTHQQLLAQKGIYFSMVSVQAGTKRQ
SMILES,test,test system,conditions,endpoint,result
C[C@]12CCCN1CC1=NNC(=O)c3cc(F)cc4[nH]c2c1c34,,MDCKII-MDR1,"1 µM, added: verapamil 100 µM",Papp A-B,26.6 ×10⁻⁶ cm/s
CCOc1cc2ncc(C#N)c(Nc3ccc(OCc4ccccn4)c(Cl)c3)c2cc1NC(=O)/C=C/CN(C)C,bidirectional transwell permeability,MDCKII cells transfected with ABCB1,"1 µM, 1 h, pH 7.4, added: elacridar 0.5 µM",Papp A-B,1.15 ± 0.56 ×10⁻⁶ cm/s
C[C@H]1O[C@@H](O[C@H]2[C@@H](O)C[C@H](O[C@H]3[C@@H](O)C[C@H](O[C@H]4CC[C@@]5(C)[C@H](CC[C@@H]6[C@@H]5C[C@@H](O)[C@]5(C)[C@@H](C7=CC(=O)OC7)CC[C@]65O)C4)O[C@@H]3C)O[C@@H]2C)C[C@H](O)[C@@H]1O,substrate,human EpiIntestinal microtissues,"5 µM, 2 h, added: zosuquidar 5 µM",Papp (B to A),4.3 ± 0.9 ×10⁻⁶ cm/s
Cc1cc(S(=O)(=O)N[C@H]2CC[C@H](N3CCN(CC4CCN(c5cccc6c5n(C)c(=O)n6C5CCC(=O)NC5=O)CC4)CC3)CC2)ccc1Nc1ncc(C(F)(F)F)c(N2CCC[C@](C)(O)C2)n1 (stereo partly shown),bidirectional transport,MDCK cells expressing ABCB1,"1 µM, 120 min, pH 7.4",efflux ratio,> 108
CC[C@H]1[C@@H](O)[C@@H]2[C@H](CC[C@]3(C)[C@@H]([C@H](C)CCNC(=O)NS(=O)(=O)c4ccc(C(C)(C)C)cc4)CC[C@@H]23)[C@@]2(C)CC[C@@H](O)C[C@@H]12,,"human, plasma",arithmetic mean,Tlast,71 h
O=c1[nH]c(=O)c(Cc2cccc(C(F)(F)F)c2)c([C@H]2CC[C@H](c3ccccc3)CC2)[nH]1,"transport, inhibitor",inside-out membrane vesicles,added: N-methyl-quinidine,IC50,> 5 µM
C[C@H]1O[C@@H](O[C@H]2[C@@H](O)C[C@H](O[C@H]3[C@@H](O)C[C@H](O[C@H]4CC[C@@]5(C)[C@H](CC[C@@H]6[C@@H]5C[C@@H](O)[C@]5(C)[C@@H](C7=CC(=O)OC7)CC[C@]65O)C4)O[C@@H]3C)O[C@@H]2C)C[C@H](O)[C@@H]1O,,"human, plasma","oral, dose not given, added: valemetostat",AUClast increase,27%
Cc1cc(Nc2ncnc3ccc(NC4=NC(C)(C)CO4)cc23)ccc1Oc1ccn2ncnc2c1,bidirectional transwell permeability,MDCKII cells transfected with ABCB1,"1 µM, 1 h, pH 7.4, added: elacridar 0.5 µM",Papp A-B,11.4 ± 2.76 ×10⁻⁶ cm/s
Cc1cc(S(=O)(=O)N[C@H]2CC[C@H](CN3CCN(c4ccc(C5CCC(=O)NC5=O)c(Cl)c4)CC3)CC2)ccc1Nc1ncc(C(F)(F)F)c(N2CCC[C@](C)(O)C2)n1 (stereo partly shown),bidirectional transport,MDCK cells expressing ABCB1,"1 µM, 120 min, pH 7.4",efflux ratio,> 54
CS(=O)(=O)CCNCc1ccc(-c2ccc3ncnc(Nc4ccc(OCc5cccc(F)c5)c(Cl)c4)c3c2)o1,bidirectional transwell permeability,MDCKII cells transfected with ABCB1,"1 µM, 1 h, pH 7.4, added: elacridar 0.5 µM",Papp A-B,1.11 ± 0.69 ×10⁻⁶ cm/s
C=CC(=O)N1CCN(c2nc(=O)n(-c3c(C)ccnc3C(C)C)c3nc(-c4c(O)cccc4F)c(F)cc23)[C@@H](C)C1,,MDCK-MDR1,,Papp A-B,0.6 ×10⁻⁶ cm/s
C=CC(=O)N1CC2(CCN(c3nc4c(c(-c5cc(O)cc6ccccc56)c3C#N)C[C@H]3C[C@@H]4C3(C)C)C2)C1,,,,efflux ratio,33
Cc1cc(S(=O)(=O)NC2CC(N3CCN(CC4CCN(c5cccc6c5n(C)c(=O)n6C5CCC(=O)NC5=O)CC4)C4(CC4)C3)C2)ccc1Nc1ncc(C(F)(F)F)c(N2CCC[C@](C)(O)C2)n1 (stereo partly shown),bidirectional transport,MDCK cells expressing ABCB1,"1 µM, 120 min, pH 7.4",efflux ratio,41
